Results from different studies.
Protocols differ between the studies behind these lines. “And” joins repeats or separate records; there may be more than shown. ± marks the error that the study gave.

`COc1ccc2c3c1O[C@H]1[C@H](O)C=C[C@@]4(O)[C@@H](C2)N(C)CC[C@]314`: “Δlog K, 14-hydroxylation effect” 0.76 log units (pH-potentiometric titration; baseline: O-methyl derivative).
`NC[C@]1(CC(=O)O)CC[C@H]([18F])CC1` gave a K1 of 0.0059 mL/min/cm3 (PET, one-tissue model; rhesus monkey, occipital gyrus; intravenous).
`COc1ccc2c3c1O[C@H]1C(=O)CC[C@@]4(O)[C@@H](C2)N(CCc2ccccc2)CC[C@]314` has a logD of 2.38 (octanol/buffer; 1 h, pH 7.4).
`COc1ccc(-n2cc(C(=O)N3C[C@]4(OC(=O)c5ccccc5NC(C)=O)CC[C@H](OC)[C@@]56[C@@H]4C[C@@H]([C@@H]35)[C@@]3(O)C[C@H](OC)[C@H]4C[C@@H]6[C@]3(O)[C@H]4OC)nn2)cc1` gave a clearance of 564 mL/min/kg (rat Sprague-Dawley, plasma; intravenous, 2 mg/kg).
For `CC(C)N1CN(C2c3ccccc3CCc3ccccc32)n2cc(C(=O)O)c(=O)c(O)c2C1=O`, the CC50 was 3.5 µM (dog cells).
Under “organ-to-brain weight ratio”, `O=C1NC2(CC2)COc2ncc(F)cc2[C@H]2COCCN2c2ccn3ncc1c3n2` is recorded as 653 ± 70.6% (Sprague-Dawley rat, male, liver; oral, 2.5 mg/kg/day, 4 weeks dosing, end of recovery).
For `COc1ccc2c3c1O[C@H]1[C@@H](O)CC[C@H]4[C@@H](C2)N(CCc2ccccc2)CC[C@@]341`, “Δlog K, saturation effect” read 0.54 log units (pH-potentiometric titration; baseline: O-methyl derivative).
The CC50 of `O=C(O)c1cn2c(c(O)c1=O)C(=O)N(Cc1ccc(F)cc1F)C[C@@H]2C(c1ccccc1)c1ccccc1` is reported as over 10 µM (bovine cells).
For `Cc1ccc(OCCN(C)C)cc1C(=O)N[C@H](C)c1cc(-c2cnn(C(C)C)c2)nc2ccccc12`, the viability was 103% and 90.7% (Vero E6; 3.906 µM).
For `COc1cc2c(cc1NC(=O)c1cncn1C)C[C@H]1[C@H]3CCCC[C@@]23CCN1C`, the plasma concentration was 1050 ng/mL and 955 ng/mL and 916 ng/mL and 1510 ng/mL (C57BL/6 mice, plasma; oral, 50 µg/g, 300 min).
`CCn1ccc(-c2cc([C@@H](C)NC(=O)c3cc(OC[C@@H]4CCCN4C)ccc3C)c3ccccc3n2)n1` gave a viability of 40.3% and 38.7% and 30.1% (Vero E6; 31.25 µM).
The CC50 of `C[C@@H](N1CN([C@H]2c3ccccc3CSc3ccccc32)n2cc(C(=O)O)c(=O)c(O)c2C1=O)C(F)(F)F` is reported as over 10 µM (dog cells).

Excerpt of the above:
For `Cc1ccc(OCCN(C)C)cc1C(=O)N[C@H](C)c1cc(-c2cnn(C(C)C)c2)nc2ccccc12`, the viability was 103% and 90.7% (Vero E6; 3.906 µM).
For `COc1cc2c(cc1NC(=O)c1cncn1C)C[C@H]1[C@H]3CCCC[C@@]23CCN1C`, the plasma concentration was 1050 ng/mL and 955 ng/mL and 916 ng/mL and 1510 ng/mL (C57BL/6 mice, plasma; oral, 50 µg/g, 300 min).
